Experimental data of several laboratories.
Each numbered part is a random draw from the data of one study; scales do not carry over between parts. Values joined by “and” are separate records of one study, mostly repeats; a detail may differ. ± gives the spread as reported.
UniProt Q9NQU5, sequence (whole entry, looked up): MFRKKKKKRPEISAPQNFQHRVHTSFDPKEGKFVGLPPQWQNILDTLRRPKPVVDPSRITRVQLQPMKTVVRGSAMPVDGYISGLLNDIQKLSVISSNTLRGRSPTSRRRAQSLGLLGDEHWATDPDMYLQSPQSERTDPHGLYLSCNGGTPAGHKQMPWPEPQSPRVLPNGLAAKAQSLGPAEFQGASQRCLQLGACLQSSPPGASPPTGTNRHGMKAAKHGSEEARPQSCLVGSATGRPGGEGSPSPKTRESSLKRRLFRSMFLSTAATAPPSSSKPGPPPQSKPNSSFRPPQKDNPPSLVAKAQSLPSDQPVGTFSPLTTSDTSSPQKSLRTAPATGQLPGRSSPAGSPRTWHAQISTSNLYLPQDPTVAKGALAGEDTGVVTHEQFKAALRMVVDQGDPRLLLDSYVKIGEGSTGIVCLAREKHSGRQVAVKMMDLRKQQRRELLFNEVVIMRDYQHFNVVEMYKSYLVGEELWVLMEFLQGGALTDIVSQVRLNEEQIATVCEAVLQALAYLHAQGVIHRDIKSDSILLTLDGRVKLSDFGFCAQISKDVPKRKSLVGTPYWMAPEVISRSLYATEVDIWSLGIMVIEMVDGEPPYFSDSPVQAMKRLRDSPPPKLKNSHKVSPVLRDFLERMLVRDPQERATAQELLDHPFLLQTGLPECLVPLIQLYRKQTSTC
UniProt P00519, sequence (whole entry, unmodified, looked up): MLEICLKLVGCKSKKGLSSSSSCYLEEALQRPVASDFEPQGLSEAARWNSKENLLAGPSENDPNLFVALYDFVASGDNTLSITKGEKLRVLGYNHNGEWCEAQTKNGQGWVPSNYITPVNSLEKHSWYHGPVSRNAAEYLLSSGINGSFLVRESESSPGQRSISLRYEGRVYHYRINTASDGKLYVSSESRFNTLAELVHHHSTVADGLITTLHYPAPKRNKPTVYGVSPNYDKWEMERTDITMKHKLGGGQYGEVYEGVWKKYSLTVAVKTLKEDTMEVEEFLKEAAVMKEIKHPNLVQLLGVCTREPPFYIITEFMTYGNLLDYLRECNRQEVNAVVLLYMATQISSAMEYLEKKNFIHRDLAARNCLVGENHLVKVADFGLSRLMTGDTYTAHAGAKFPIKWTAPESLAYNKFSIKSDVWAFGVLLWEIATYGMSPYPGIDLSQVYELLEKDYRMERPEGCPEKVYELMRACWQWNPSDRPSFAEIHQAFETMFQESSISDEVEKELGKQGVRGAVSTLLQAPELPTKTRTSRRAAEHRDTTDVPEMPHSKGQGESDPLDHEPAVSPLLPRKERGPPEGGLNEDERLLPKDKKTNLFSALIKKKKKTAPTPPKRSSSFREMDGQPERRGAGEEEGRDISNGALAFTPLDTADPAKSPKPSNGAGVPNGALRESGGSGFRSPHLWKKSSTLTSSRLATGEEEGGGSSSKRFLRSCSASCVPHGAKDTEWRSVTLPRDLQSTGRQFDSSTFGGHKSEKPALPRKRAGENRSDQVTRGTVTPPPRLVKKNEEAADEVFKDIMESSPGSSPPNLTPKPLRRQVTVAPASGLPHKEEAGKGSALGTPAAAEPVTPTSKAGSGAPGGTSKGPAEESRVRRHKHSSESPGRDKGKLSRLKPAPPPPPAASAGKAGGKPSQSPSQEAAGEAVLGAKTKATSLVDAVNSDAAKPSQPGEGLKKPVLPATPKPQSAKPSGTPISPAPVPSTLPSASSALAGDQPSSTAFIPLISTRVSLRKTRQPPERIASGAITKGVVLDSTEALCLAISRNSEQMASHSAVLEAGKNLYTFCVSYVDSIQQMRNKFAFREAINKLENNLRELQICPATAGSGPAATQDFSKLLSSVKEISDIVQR
UniProt P08069, sequence (whole entry, looked up): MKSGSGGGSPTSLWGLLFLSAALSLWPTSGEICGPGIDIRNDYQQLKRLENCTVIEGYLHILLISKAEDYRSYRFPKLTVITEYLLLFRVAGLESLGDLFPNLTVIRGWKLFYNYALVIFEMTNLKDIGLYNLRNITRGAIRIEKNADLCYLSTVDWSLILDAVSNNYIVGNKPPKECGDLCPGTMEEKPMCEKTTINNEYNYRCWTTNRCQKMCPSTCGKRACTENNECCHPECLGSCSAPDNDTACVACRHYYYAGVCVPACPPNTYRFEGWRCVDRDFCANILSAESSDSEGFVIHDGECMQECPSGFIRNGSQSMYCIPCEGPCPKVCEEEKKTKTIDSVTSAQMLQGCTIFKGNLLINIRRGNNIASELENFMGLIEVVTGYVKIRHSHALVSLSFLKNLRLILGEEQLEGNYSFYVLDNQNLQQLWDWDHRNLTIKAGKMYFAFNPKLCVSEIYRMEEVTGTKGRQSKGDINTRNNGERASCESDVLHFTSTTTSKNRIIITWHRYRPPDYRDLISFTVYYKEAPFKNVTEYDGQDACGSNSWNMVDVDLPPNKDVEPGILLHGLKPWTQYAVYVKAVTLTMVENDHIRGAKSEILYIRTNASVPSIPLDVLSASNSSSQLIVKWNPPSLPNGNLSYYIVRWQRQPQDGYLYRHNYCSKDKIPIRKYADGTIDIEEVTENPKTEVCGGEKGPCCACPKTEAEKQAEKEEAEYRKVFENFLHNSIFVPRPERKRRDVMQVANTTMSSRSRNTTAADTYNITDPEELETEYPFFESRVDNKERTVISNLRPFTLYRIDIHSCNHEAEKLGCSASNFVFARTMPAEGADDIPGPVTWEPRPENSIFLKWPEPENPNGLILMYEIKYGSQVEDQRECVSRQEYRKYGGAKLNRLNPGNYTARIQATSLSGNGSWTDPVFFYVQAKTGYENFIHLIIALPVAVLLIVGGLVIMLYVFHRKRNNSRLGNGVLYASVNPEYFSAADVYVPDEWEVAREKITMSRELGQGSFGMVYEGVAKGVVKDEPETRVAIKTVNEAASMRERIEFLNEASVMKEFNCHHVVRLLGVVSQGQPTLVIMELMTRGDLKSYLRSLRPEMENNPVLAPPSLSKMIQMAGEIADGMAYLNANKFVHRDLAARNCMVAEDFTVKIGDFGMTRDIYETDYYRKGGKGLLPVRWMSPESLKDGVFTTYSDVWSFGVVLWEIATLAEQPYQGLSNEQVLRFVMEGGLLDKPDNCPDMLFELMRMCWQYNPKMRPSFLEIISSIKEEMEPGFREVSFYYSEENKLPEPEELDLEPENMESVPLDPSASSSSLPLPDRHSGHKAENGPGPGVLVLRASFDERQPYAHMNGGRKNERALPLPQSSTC
UniProt Q05513, sequence (whole entry, looked up): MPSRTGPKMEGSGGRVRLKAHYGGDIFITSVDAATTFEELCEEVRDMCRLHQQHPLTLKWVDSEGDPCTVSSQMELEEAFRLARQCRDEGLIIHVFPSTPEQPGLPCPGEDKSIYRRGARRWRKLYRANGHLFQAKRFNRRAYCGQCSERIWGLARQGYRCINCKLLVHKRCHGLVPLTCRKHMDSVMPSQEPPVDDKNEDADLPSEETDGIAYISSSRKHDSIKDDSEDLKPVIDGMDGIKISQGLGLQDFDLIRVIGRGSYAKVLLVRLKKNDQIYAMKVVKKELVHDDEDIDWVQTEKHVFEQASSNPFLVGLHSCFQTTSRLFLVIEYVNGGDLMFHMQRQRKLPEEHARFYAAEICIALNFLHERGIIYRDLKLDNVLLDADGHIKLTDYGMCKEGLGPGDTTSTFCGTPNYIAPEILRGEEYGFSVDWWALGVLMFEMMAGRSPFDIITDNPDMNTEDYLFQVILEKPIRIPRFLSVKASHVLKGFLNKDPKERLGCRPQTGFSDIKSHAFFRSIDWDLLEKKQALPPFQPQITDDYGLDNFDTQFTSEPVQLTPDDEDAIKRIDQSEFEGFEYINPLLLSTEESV
UniProt Q16539, sequence (whole entry, looked up): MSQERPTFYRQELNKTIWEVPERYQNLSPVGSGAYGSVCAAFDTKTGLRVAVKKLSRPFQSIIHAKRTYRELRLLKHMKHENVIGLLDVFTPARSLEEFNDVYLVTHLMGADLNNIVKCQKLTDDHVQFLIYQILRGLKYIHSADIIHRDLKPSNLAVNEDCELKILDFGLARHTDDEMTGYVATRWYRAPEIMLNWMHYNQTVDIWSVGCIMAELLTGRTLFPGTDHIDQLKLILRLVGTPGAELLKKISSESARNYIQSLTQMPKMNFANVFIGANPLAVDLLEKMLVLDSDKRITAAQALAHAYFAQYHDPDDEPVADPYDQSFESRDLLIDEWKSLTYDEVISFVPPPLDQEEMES
UniProt Q13153, sequence (whole entry, looked up): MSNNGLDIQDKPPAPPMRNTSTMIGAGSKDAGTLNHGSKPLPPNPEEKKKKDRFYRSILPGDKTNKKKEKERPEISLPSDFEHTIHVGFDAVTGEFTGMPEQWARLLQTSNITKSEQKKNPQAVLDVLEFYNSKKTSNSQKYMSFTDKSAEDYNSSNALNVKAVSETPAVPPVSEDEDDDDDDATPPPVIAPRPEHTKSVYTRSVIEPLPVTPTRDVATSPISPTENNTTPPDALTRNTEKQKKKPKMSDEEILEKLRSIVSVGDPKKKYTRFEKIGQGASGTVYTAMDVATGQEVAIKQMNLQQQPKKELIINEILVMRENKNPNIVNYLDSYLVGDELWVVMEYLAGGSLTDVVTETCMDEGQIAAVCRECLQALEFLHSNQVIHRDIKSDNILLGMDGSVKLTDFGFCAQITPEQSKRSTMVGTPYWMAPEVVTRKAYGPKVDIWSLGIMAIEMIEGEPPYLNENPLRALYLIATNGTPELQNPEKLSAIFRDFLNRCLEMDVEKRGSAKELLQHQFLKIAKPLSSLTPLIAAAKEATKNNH

Block 1
Cell line: mouse MPNST tumor cells
Method: high-content nuclear imaging
Item: cell number
Concentration: 10 µM
Time: 12 h
Notes: mean of 2 replicates
Relative to: plate mean
Direction: higher = more cells
SMILES	nuclei count [z-score]
COCC(=O)O[C@]1(CCN(C)CCCc2nc3ccccc3[nH]2)CCc2cc(F)ccc2[C@@H]1C(C)C	-5.72
FC(F)(F)c1cc(NC(=S)Nc2ccc(Br)cc2-c2nn[nH]n2)cc(C(F)(F)F)c1	1.16
c1ccc(C(NCCNC(c2ccccc2)c2ccccc2)c2ccccc2)cc1	3
Cc1ccc(NC(=O)CCCCCC(=O)Nc2ccccc2N)cc1	1.7

Block 2
SMILES: O=S(=O)(NCCNC/C=C/c1ccc(Br)cc1)c1cccc2cnccc12
Effect on: enzyme activity
Action: inhibitor
Concentration: 0.5 µM
Relative to: control
target	remaining activity [%]
Calcium/calmodulin-dependent protein kinase type 1 (CAMK1, Homo sapiens, UniProt Q14012)	107
Tyrosine-protein kinase JAK1 (JAK1, Homo sapiens, UniProt P23458)	87.3
Ephrin type-A receptor 2 (EPHA2, Homo sapiens, UniProt P29317)	101
Vascular endothelial growth factor receptor 1 (FLT1, Homo sapiens, UniProt P17948)	90.8
Tyrosine-protein kinase receptor TYRO3 (TYRO3, Homo sapiens, UniProt Q06418)	93.9
Cyclin-dependent kinase 2, with cyclin E (CDK2, Homo sapiens, UniProt P24941)	99.3
Tyrosine-protein kinase Tec (TEC, Homo sapiens, UniProt P42680)	102
Insulin-like growth factor 1 receptor (IGF1R, Homo sapiens, UniProt P08069)	104
Serine/threonine-protein kinase SIK2 (SIK2, Homo sapiens, UniProt Q9H0K1)	95
Protein kinase C zeta type (PRKCZ, Homo sapiens, UniProt Q05513)	79.8
Protein kinase C theta type (PRKCQ, Homo sapiens, UniProt Q04759)	104
Mitogen-activated protein kinase kinase kinase 20 (MAP3K20, Homo sapiens, UniProt Q9NYL2)	105
Calcium/calmodulin-dependent protein kinase kinase 1 (CAMKK1, Homo sapiens, UniProt Q8N5S9)	99.1
Serine/threonine-protein kinase Sgk2 (SGK2, Homo sapiens, UniProt Q9HBY8)	84.2
Dual specificity protein kinase CLK2 (CLK2, Homo sapiens, UniProt P49760)	106
Dual specificity protein kinase CLK1 (CLK1, Homo sapiens, UniProt P49759)	103
Muscle, skeletal receptor tyrosine-protein kinase (MUSK, Homo sapiens, UniProt O15146)	80.7
Serine/threonine-protein kinase PAK 1 (PAK1, Homo sapiens, UniProt Q13153)	90.2
Serine/threonine-protein kinase PAK 6 (PAK6, Homo sapiens, UniProt Q9NQU5)	85.5
Casein kinase I isoform epsilon (CSNK1E, Homo sapiens, UniProt P49674)	107
Ribosomal protein S6 kinase alpha-3 (RPS6KA3, Homo sapiens, UniProt P51812)	70.9

Block 3
Target: Centromere-binding protein 1, full length, His-tagged (CBF1, Saccharomyces cerevisiae, UniProt P17106, residues 1-351)
UniProt P17106, sequence (whole entry, looked up): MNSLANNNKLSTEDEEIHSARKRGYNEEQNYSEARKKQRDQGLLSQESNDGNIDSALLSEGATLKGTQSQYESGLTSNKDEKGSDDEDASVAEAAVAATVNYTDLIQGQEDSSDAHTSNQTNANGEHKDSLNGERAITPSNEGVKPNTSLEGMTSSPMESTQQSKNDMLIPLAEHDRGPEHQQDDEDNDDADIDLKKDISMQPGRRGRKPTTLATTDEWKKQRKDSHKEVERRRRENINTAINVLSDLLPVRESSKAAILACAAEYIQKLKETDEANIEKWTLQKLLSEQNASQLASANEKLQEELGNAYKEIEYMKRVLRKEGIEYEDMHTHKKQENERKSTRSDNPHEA
Method: competition protein-binding microarray
Molecule type: double-stranded DNA, one strand shown
Matrix: in vitro
Concentration: 2 µM
Notes: whole 60-bp probe, lowest competitor level
With: Pho4 competitor, 0.05 µM
Direction: higher = stronger binding
Strand	fluorescence intensity [a.u.]
CCGCTAACAAATCCACACGTCGCACTGAAAGTGATAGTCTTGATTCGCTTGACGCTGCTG	70.1
CGTTGCCTTATCGTCCTCGTGTCCTGTCTTCGAGGTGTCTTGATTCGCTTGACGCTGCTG	109
ATTTCTTTAGCCGGCCACGTGGCAACTGAAATGTCTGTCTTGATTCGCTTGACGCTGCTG	1580
TGCAGTTTTCTTTCACACGTTCGAAAGCCCCTTTGAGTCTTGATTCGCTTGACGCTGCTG	104
AATGGGTATGGCAGCACCGTGATGGAACAACCATTTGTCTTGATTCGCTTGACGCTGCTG	75.8
CTTCTGTAAATTTGTTGCGTGGGTGGACGCGCCCCGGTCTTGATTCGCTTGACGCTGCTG	72.1
TTGCCGTGTGAAGGCAACGTGATGGCCGCTACACTAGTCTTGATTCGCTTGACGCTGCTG	211
CATACCCAACCTTGGATCGTGGGTGAAGATATTTGTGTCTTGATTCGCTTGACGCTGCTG	76.5

Block 4
Structure (SMILES): O=C(Nc1cnc(Oc2ccc(F)cc2)nc1)N1CCc2ncccc2[C@@H]1c1ccc(F)cc1
Method: competition with immobilised ligand
Concentration: 1 µM
target	assay	remaining binding
Serine/threonine-protein kinase TAO2 (TAOK2, Homo sapiens, UniProt Q9UL54)	cell-free assay	87%
Serine/threonine-protein kinase PAK 6 (PAK6, Homo sapiens, UniProt Q9NQU5)	cell-free assay	100%
NUAK family SNF1-like kinase 2 (NUAK2, Homo sapiens, UniProt Q9H093)	cell-free assay	100%
Tyrosine-protein kinase ITK/TSK (ITK, Homo sapiens, UniProt Q08881)	cell-free assay	90%
Proto-oncogene tyrosine-protein kinase receptor Ret (RET, Homo sapiens, UniProt P07949)	cell-free assay	94%
Mitogen-activated protein kinase 14 (MAPK14, Homo sapiens, UniProt Q16539)	cell-free assay	79%
Tyrosine-protein kinase ABL1, phosphorylated (ABL1, Homo sapiens, UniProt P00519, E255K)	binding	100%

Further values, each from its own experiment
Structure (SMILES)	tested on	assay	system	setting	quantity	value
c1ccc(Oc2ccc(Nc3c4c(nc5ccccc35)CCC4)cc2)cc1	Leishmania infantum	qPCR	MHOM/BR/1972/BH46, golden hamster, chronic infection, liver	oral, 10 mg/kg/day, 10 days, with: glucantime 50 mg/kg/day i.p.	parasite load	42 amastigotes/g tissue and 50.8 amastigotes/g tissue and 45.5 amastigotes/g tissue and 484 amastigotes/g tissue and 56.8 amastigotes/g tissue and 40.8 amastigotes/g tissue
CC(C)n1cnc(-c2ccc(F)cc2)c1-c1ncc(C(=O)Nc2ccc(N3CCN(C)CC3)cc2)[nH]1			human, idiopathic pulmonary fibrosis	60 mg once daily, trial, treatment-emergent	patients with muscular weakness	0%
OCCN1CCN(CCCN2c3ccccc3Sc3ccc(Cl)cc32)CC1			mouse, serum	dose not given	serum ALT	133 ± 42.6 U/L

Some of these lines once more (block 1):
SMILES	nuclei count [z-score]
COCC(=O)O[C@]1(CCN(C)CCCc2nc3ccccc3[nH]2)CCc2cc(F)ccc2[C@@H]1C(C)C	-5.72
FC(F)(F)c1cc(NC(=S)Nc2ccc(Br)cc2-c2nn[nH]n2)cc(C(F)(F)F)c1	1.16
c1ccc(C(NCCNC(c2ccccc2)c2ccccc2)c2ccccc2)cc1	3
Cc1ccc(NC(=O)CCCCCC(=O)Nc2ccccc2N)cc1	1.7
